Published values pooled from the literature.
Protocols differ between the studies behind these lines.

`C[C@H](Oc1ccc(Br)cc1-c1ccon1)C(=O)O` gave a CMAP amplitude of -0.073 mV (muscle velocity recovery cycles; human, tibialis anterior muscle; 200 mg once daily, multiple doses, multiple ascending dose; reference: placebo).
For `Oc1ccc2c(c1)OC[C@]1(O)Cc3cc(O)c(O)cc3[C@H]21`, the EC50 was 26.1 µM (Toxoplasma gondii; parasite growth; HFF, bradyzoite, alkaline-induced).
For `C[C@H]1C[C@H]2CSC(N)=N[C@@]2(c2nc(NC(=O)c3ccc(OC(F)F)cn3)cs2)CO1`, “percent change from baseline” read -68.9% (item: Aβ1-40; healthy adults, plasma; 15 mg once daily, day 10; reference: placebo).
The sarcomere length of `CC(C)NCC(O)c1ccc(O)c(O)c1` (centres unmarked) is reported as 1.72 µm (ventricular cardiomyocytes, C57BL/6 mouse; dose not given, 0.04 s).
Under “log2 fold change”, `Cc1n[nH]c2ccc(-c3cc(OC[C@@H](N)Cc4ccccc4)cnc3-c3ccoc3)cc12` is recorded as -0.0854 (kinase binding, competitor, MIB/MS competition, item: YPK1; Candida albicans cell lysate; 100 nM; reference: DMSO).
`CCCCCN1C[C@H](O)[C@@H](O)[C@H](O)[C@@H]1CO` — result for “maximum GlcCer level”: 34.7 fold (item: GlcCer d18:1/18:0; wild-type mouse, cerebral cortex; oral, food admix, 30 mg/kg/day, 14 days; reference: untreated).
For `COc1cc(/C=C/C(=O)N2CCC=CC2=O)cc(OC)c1OC`, the EC50 was 3.92 µM (Toxoplasma gondii; parasite growth, luciferase reporter; HFF, tachyzoite; 72 h).
`N#Cc1ccc2c(-c3ccncc3)c(-c3ccc(F)cc3)nn2c1`: “log2 fold change” 0.331 (kinase binding, competitor, MIB/MS competition, item: CKA1; Candida albicans cell lysate; 1 µM; reference: DMSO).
Under “EEG gamma power, O2 Pz”, `OC(CCN1CCCCC1)(c1ccccc1)C1CC2C=CC1C2` (centres unmarked) is recorded as 0.9 µV² (resting-state EEG; healthy elderly humans; oral, 2 mg, eyes open, LS mean).
Under “CD8+ central memory change”, `NC(=O)c1cnc2[nH]ccc2c1N[C@@H]1[C@@H]2CC3C[C@H]1C[C@@](O)(C3)C2` is recorded as 0.27% (flow cytometry; Japanese healthy men, blood; oral, 30 mg twice daily, 72 h after day 7 dose; reference: baseline).
For `O=C(O)CNC(=O)Cc1ccccc1`, the sarcomere length was 1.62 µm (ventricular cardiomyocytes, C57BL/6 mouse; dose not given, 0.86 s).

Some of these lines once more:
For `C[C@H]1C[C@H]2CSC(N)=N[C@@]2(c2nc(NC(=O)c3ccc(OC(F)F)cn3)cs2)CO1`, “percent change from baseline” read -68.9% (item: Aβ1-40; healthy adults, plasma; 15 mg once daily, day 10; reference: placebo).
